Experimental data of several laboratories.
Each numbered part is a random draw from the data of one study; scales do not carry over between parts. Substitutions count along the parent as printed.

Block 1
Target: Fragile X messenger ribonucleoprotein 1, C-terminal low-complexity region (Fmr1, Mus musculus, UniProt P35922)
Method: RNA Bind-n-Seq
Molecule type: RNA
Medium: in vitro
Concentration: 200 nM
Setting: whole 134-nt RNA, ends assumed
Together with: 150 mM LiCl
Relative to: input library
Reading: higher = stronger binding
Each molecule: 7-deaza-guanosine replaces G
The log2 enrichment of `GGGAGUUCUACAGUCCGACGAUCUGGCCCUGGUGGCAUGCGGGGAGGAAGAGGUGGCCUCAUGGAUCGUGGUGGUCCCGGUGGAAUGUUCAGAGGUGGCCGUGGUCGAGACAGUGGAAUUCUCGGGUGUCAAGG` is reported as -1.38.
The log2 enrichment of `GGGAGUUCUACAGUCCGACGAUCGUCCUGUGCUACACAUCGUAUGUACCGAAUCGGAAAAAGGUUUUUUUGGUUUUUUUGGAAAGUAUUAUGUUACGCCGUUCGGAUCUGCACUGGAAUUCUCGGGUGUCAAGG` is reported as -2.72.
For `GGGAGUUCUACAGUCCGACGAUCUGGCCCUGGUGGCAUGCGGGGAGGAAGAGGUGGCCUCAGGGAUCGUGGUGGUCCCGGUGGAAUGUUCAGAGGUGGCCGUGGUGGAGACAGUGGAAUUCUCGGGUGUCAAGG`, the log2 enrichment was -0.301.
The log2 enrichment of `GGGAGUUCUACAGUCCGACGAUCUGGGAGGUGGAUUUUGUUUAUUUUUUUAGCUCAUUUCCAGGGGUGGGGAUUUUUUUUUAAUAUGUGUCAUGAAUAAAGUUGUUUUUGAAAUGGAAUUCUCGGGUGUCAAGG` is reported as 0.13.
The log2 enrichment of `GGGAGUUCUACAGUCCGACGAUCAGUCCUGUGCUACACAUCGUAUGUACCGAAUCGGCCCCCGGGCCCCCGGCCCCCGGGAAAGUAUUAUGUUACGCCGUUCGGAUCUGCACUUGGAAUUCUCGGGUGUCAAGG` is reported as -1.83.
For `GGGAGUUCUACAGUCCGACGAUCUCCUGUGCUACACAUCGUAUGUACCGAAUCAAACCCCCAAAUUUUUAAACCCCCCCAAAAAAGUAUUAUGUUACGCCGUUCGGAUCUGCAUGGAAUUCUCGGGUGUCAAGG`, the log2 enrichment was 2.26.
`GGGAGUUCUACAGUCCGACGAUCUCAAGUCCUGUGCUACACAUCGUAUGUACCGAAUCGGUUUUUGGUUUGGUUUGGAAAGUAUUAUGUUACGCCGUUCGGAUCUGCACUUCCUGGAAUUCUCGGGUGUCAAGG` has a log2 enrichment of -1.47.
`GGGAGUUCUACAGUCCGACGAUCUAACUUUAGAGGAGGAUCUGAUGGAUAUGGCAGUGGACGUGGAUUUGGGGAUGGCUAUAAAGGGUAUGGAGGAGGACCUGGAGGUGGCAAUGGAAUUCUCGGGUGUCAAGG` gave a log2 enrichment of -0.194.
With `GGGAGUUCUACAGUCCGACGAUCUCAAGUCCUGUGCUACACAUCGUAUGUACCGAAUCGGGAAGGGAAGGGAAGGGGAAAGUAUUAUGUUACGCCGUUCGGAUCUGCACUUCCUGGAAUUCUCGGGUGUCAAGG` the log2 enrichment was -0.932.
`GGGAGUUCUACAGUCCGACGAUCUGGCCCUGGUGGCAUGCGGGGAGGAAGAGGGGGCCUCAUGGAUCGUGGUGGUCCCGGUGGAAUGUUCAGAGGUGGCCGUGGUGGAGACAGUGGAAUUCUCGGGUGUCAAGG` gave a log2 enrichment of 0.0706.
With `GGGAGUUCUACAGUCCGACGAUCAGUCCUGUGCUACACAUCGUAUGUACCGAAUCGGCCCCCGGCCCCCGGGCCCCCGGGAAAGUAUUAUGUUACGCCGUUCGGAUCUGCACUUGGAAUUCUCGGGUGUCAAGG` the log2 enrichment was -0.794.

Block 2
Target: CCND1, cyclin fold, Cln2 fusion (human)
Method: yeast growth competition, sequencing
Medium: yeast
Setting: strong parent motif
Relative to: not given
Reading: higher = stronger binding
Starting sequence: RBL2 docking peptide (human); STTRRRLFVENDS; partner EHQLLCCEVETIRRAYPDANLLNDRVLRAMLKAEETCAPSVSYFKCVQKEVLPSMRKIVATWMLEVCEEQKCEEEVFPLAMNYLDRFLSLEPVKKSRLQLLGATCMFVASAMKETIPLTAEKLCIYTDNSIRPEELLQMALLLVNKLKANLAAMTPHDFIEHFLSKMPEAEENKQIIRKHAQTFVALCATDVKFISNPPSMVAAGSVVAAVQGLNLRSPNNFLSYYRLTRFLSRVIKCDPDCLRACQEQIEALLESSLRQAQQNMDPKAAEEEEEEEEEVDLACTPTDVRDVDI
For `R4W`, “normalised enrichment score” read -0.145.
Under “normalised enrichment score”, `S13C` is recorded as 1.1.
`R4F`: “normalised enrichment score” 1.
Under “normalised enrichment score”, `R6E` is recorded as 1.04.
Under “normalised enrichment score”, `S13V` is recorded as 0.919.
`R5Q`: “normalised enrichment score” 0.781.
`R5M`: “normalised enrichment score” 1.04.
For `D12I`, “normalised enrichment score” read 0.879.
Under “normalised enrichment score”, `T2K` is recorded as 1.83.
Under “normalised enrichment score”, `T2S` is recorded as 1.47.
`D12W`: “normalised enrichment score” 0.283.
`F8H` — result for “normalised enrichment score”: -0.337.
Under “normalised enrichment score”, `R6V` is recorded as 1.89.
Under “normalised enrichment score”, `S1Q` is recorded as 0.569.
Under “normalised enrichment score”, `F8T` is recorded as 0.451.
`T3Y`: “normalised enrichment score” 0.602.
For `N11S`, “normalised enrichment score” read 0.993.
For `L7M`, “normalised enrichment score” read -0.108.
`R6C`: “normalised enrichment score” 1.39.
For `S13Y`, “normalised enrichment score” read 0.882.
`V9H` — result for “normalised enrichment score”: 1.55.
Under “normalised enrichment score”, `R6W` is recorded as -0.113.
`D12N` — result for “normalised enrichment score”: 0.199.
For `R6F`, “normalised enrichment score” read 0.628.
For `S1G`, “normalised enrichment score” read 0.531.

Block 3
Target: Centromere-binding protein 1, full length, N-terminal tag (CBF1, Saccharomyces cerevisiae, UniProt P17106, residues 1-351)
Sequence of UniProt P17106 (whole entry, looked up): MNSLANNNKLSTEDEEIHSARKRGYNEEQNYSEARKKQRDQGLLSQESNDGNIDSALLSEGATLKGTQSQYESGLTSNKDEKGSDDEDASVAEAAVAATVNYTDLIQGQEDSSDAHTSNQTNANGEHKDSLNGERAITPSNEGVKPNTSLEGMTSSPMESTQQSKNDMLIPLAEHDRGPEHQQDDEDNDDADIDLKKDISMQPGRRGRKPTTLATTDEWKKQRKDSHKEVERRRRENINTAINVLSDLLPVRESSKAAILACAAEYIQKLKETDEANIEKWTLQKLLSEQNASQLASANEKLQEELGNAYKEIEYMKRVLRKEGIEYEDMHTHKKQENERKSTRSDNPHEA
Method: protein-binding microarray
Molecule type: double-stranded DNA, one strand shown
Medium: in vitro
Concentration: 0.8 µM
Setting: whole 60-bp probe, no competitor
Reading: higher = stronger binding
`GAAACTGCTATTTCTCACGTTTCTTTCCCTATCTAGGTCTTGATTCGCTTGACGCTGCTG` gave a fluorescence intensity of 610 a.u.
The fluorescence intensity of `GAAGTTTTGACTTGAAACGTGCAATATCCAAAATAGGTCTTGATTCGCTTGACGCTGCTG` is reported as 604 a.u.
`CTATCATGATTACCCAACGTGCCGTTACAAATGTTCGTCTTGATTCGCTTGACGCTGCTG` has a fluorescence intensity of 610 a.u.
`GAATTCAAAGATAATTTTGTCACGTTTGTTCTGTAGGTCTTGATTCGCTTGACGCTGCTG` has a fluorescence intensity of 1400 a.u.
The fluorescence intensity of `GAATCCGCCGCAATTTTCGTGACGAATGTCGTTTAGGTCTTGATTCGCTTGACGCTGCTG` is reported as 508 a.u.
The fluorescence intensity of `GAATTTGCTTGTTCTTTCGTGATTACGAAACCCTAGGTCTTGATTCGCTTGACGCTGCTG` is reported as 552 a.u.
With `CTATCTAACGCAACGCACGAGGCGGCTCACTCATTCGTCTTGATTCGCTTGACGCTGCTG` the fluorescence intensity was 552 a.u.
For `GAAGCGTGTCCCCCTCACGTTTTTAATCATTTGTAGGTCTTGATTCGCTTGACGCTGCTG`, the fluorescence intensity was 626 a.u.
With `CTATTATATGGTAAATACGTGACAGTGTTCTACTTCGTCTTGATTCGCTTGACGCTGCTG` the fluorescence intensity was 614 a.u.
`CTATTGGCGAATCGCCACATGCCATTTACGTAATTCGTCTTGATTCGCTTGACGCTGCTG` has a fluorescence intensity of 528 a.u.
With `TGTACGAAGCTATCGCGCATGACTATAGTAGTTAGGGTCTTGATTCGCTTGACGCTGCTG` the fluorescence intensity was 586 a.u.
`GAATTTCATTACCCGGACGTGGTGTTTTTTGTTTAGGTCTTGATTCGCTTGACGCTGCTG` gave a fluorescence intensity of 498 a.u.
With `GAAGGGTAGTCATTCATCGTGATGATTCATTATTAGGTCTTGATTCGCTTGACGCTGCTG` the fluorescence intensity was 522 a.u.
The fluorescence intensity of `TGTACGAAGCTATTGCACGTAGGTATAGTAGTTAGGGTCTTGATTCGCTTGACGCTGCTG` is reported as 528 a.u.
`CTAAAATAGCTAACGCACGTATCGAATACCAAATTCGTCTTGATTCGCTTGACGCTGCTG` has a fluorescence intensity of 500 a.u.
With `CTACCTGTAGCTACCATCAGCAATCCATGGTGCTTCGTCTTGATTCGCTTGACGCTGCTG` the fluorescence intensity was 503 a.u.

Block 4
Target: RNA binding protein fox-1 homolog 2, RRM domain, GST-SBP tag (RBFOX2, Homo sapiens, UniProt O43251-10, residues 100-194)
Method: RNA Bind-n-Seq
Molecule type: RNA
Medium: in vitro
Concentration: 365 nM
Setting: natural RNA segment, single round, ends assumed
Relative to: no-protein control
Reading: higher = stronger binding
Target sequence (chain): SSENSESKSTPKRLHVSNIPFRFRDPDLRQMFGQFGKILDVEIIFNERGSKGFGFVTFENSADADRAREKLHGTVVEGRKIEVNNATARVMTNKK
`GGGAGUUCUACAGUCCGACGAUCGCAGAGCCUCUGCAGCGAUCUUCUCCAACUGUUCUGUAAUCUCUACUCAACAAUAAGGUUUUAGUUACUGUAUACACUUAACCAAGUUGUGUGACCUAUGACCUACUUUGUGGAAUUCUCGGGUGCCAA`: “RBNS enrichment (R)” 0.349.
Under “RBNS enrichment (R)”, `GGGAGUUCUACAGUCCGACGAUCCUAAAAGUACUUGGGUAAACAUACUAAAAUGAAUUAUAUAAUGCAGCCUCUUAAUUCUUUGAAGAACUAAAAAAUUAGGAAACAAAGUUCUAGCAUUUACAAAACUCAGAUGGAAUUCUCGGGUGCCAA` is recorded as 0.848.
For `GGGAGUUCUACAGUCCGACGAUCCUUCGGGGCUUAGGCCACCGCUCCCUGUCCCCAGAGGAGAUAGCCCCAGAUGGACUGGAAUGUUGUGGCAUGAGAGCGCAUGUGUGCGAUGGCCCCGCUGUGGUCCCCUCUGGAAUUCUCGGGUGCCAA`, “RBNS enrichment (R)” read 6.59.
`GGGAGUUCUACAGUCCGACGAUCAGCCCCCUCCCCCGCAGCCCGGAACCCACAUUGCCGGCGCAUCCUGGGUGGAGGCAGACCCCGAGCUCGGGGAAGGGGUUUUCCUGCCUUCACGACCCAGAUCUGUGCUGUGGAAUUCUCGGGUGCCAA` — result for “RBNS enrichment (R)”: 0.839.
Under “RBNS enrichment (R)”, `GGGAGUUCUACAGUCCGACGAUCAUAAUGAGUCCUAUUUUUCUCUCACAUAAUAUGCAUUUGCUCUCCUAGGACAGUGUAAUACAUUUAUGUGAAGUAAAGACAUGCGAGACUGGUGGCCUGCAAAUAGCAUCUGGAAUUCUCGGGUGCCAA` is recorded as 0.342.
`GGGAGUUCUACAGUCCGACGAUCAUAAGGCUAAAUAUUACUUUACACAGUAAGAUGUGAAAUUCACAAAAAGUAAACCAAACAAAACGAAUGAAAAACUGGAAAUAAUUCGUUUCCAUAUCUUUCCAUACAUCUGGAAUUCUCGGGUGCCAA`: “RBNS enrichment (R)” 0.669.
`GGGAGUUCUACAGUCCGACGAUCCGACAAGGAAAGUGAUGUGGAGAUUUAGAGCAGCAUGGAUGCUGUGUCCCCAAGAGUUCCUUGUCACCUCUGUGGUGGGAAGGAAAGUAUGGUUUCCCCAGGUCUGAACUUGGAAUUCUCGGGUGCCAA`: “RBNS enrichment (R)” 1.74.
`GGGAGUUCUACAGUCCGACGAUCGAAUUUGACUCUCCAACUUUAGGAACCUCGAAAAGUGAGACGAUUCUGGGAUAAGAAACCUUCCCUGUUUGAGGACAUUGGCUUCAUUUUAUACUGUUUUGGCAUGGACUUGGAAUUCUCGGGUGCCAA` — result for “RBNS enrichment (R)”: 5.94.
Under “RBNS enrichment (R)”, `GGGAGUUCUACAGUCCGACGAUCAGUGUUUGAGCCUACAGUGGGAUACAUAGGGUCAAAUUGAGAAUAAUAAACUGAGUCAUUCUCCUGGGUCAAGUGAGUAUGGAGGCUGAGAGGCAGCAUAUGGCACUUCAUGGAAUUCUCGGGUGCCAA` is recorded as 1.16.

Some of these lines once more (block 2):
For `L7M`, “normalised enrichment score” read -0.108.
`T3Y`: “normalised enrichment score” 0.602.
For `D12I`, “normalised enrichment score” read 0.879.
Under “normalised enrichment score”, `S13C` is recorded as 1.1.
Under “normalised enrichment score”, `S13V` is recorded as 0.919.
For `S1G`, “normalised enrichment score” read 0.531.
Under “normalised enrichment score”, `R6E` is recorded as 1.04.
For `R4W`, “normalised enrichment score” read -0.145.
